Experimental data of several laboratories.
Protocols differ between the studies behind these lines.
Matrix: urine

Cn1cc(-c2cn3nccc3c(-c3cnn([C@]4(CC#N)C[C@@H](C#N)C4)c3)n2)cn1  amount excreted unchanged in urine (healthy humans; oral, 400 mg once daily, day 10, Japanese cohort, dosing interval): 2.9 mg
C=CC(=O)Nc1cc(Nc2ncc(C(=O)OC(C)C)c(-c3cn(C)c4ccccc34)n2)c(OC)cc1N(C)CCN(C)C  amount excreted in urine (healthy human; oral, 20 mg single dose, 0-48 h, arithmetic mean): 0.19 mg
CC(=O)N(C)[C@H]1CCN(C(=O)c2cnc3c(c2)C[C@](C)(c2ccc(F)cc2)N3)C1  amount excreted in urine (0-48 h, steady state) (male humans; oral, 60 mg once daily, multiple dosing, geometric mean): 86900 nmol
CC(C)n1c(C2CCNCC2)nc2c([N+](=O)[O-])c(Br)c(Br)cc21  amount excreted in urine (human; oral, 75 mg, 0-24 h, median, single dose): 0.46 mg
NCCONC(=O)[C@@H]1CC[C@@H]2CN1C(=O)N2OS(=O)(=O)O  amount excreted in urine (0-24 h) (human male; intravenous infusion, 2 g multiple doses, day 9): 1740 mg
Oc1ccc([C@@H](O)c2cc(-c3ncnc4cc(N5CCOCC5)ccc34)c(F)cc2Cl)nn1  amount excreted in urine (healthy human volunteers; 0-24 h, fasted oral solution, geometric mean; reference: dose): 6.32%
CN[C@@H]1COc2c(S(=O)(=O)NC(=O)Nc3c4c(cc5c3CCC5)CCC4)cnn2C1  amount excreted in urine (human; oral, 900 mg twice daily, 0-12 h, day 7): 111 mg
CC(C)(Sc1ccncc1-c1ccc(C#N)c2ccccc12)C(=O)O  amount excreted in urine (0-24 h) (human; oral, 10 mg, with: febuxostat 20 mg): 0.166 mg

Repeated from above:
CC(C)(Sc1ccncc1-c1ccc(C#N)c2ccccc12)C(=O)O  amount excreted in urine (0-24 h) (human; oral, 10 mg, with: febuxostat 20 mg): 0.166 mg
